Measurements from different studies.
Lines come from different studies, so protocols differ. Numbers after ± are the reported error.
PLA2G6: 85/88 kDa calcium-independent phospholipase A2 (PLA2G6, Homo sapiens, UniProt O60733)
IDE: Insulin-degrading enzyme (IDE, Homo sapiens, UniProt P14735)
Methyl-accepting chemotaxis protein CtaA sensing domain: Methyl-accepting chemotaxis protein CtaA, sensing domain (Pseudomonas fluorescens, UniProt Q3K7T6)
Neuropeptide FF receptor 2: Neuropeptide FF receptor 2 (Homo sapiens, UniProt Q9Y5X5)

Compound | tested on | test | test system | setting | endpoint | value
O[C@H](c1cc(C(F)(F)F)nc2c(C(F)(F)F)cccc12)[C@H]1CCCCN1 | Pannexin-1 (Panx1, Mus musculus, UniProt Q9JIP4) | ion current, blocker, whole-cell patch clamp | Neuro2A transfected with Panx1-GFP | together with: voltage ramp depolarization | EC50 | 0.8 ± 0.25 µM
CCC[C@@H]1OC(=O)[C@@H]1CCCCc1ccc2ccccc2c1 (racemic) | PLA2G6 | enzyme activity, inhibitor, lipidomics mixed micelle | – | – | XI(50) | 0.0021 mole fraction
CC[C@H](C)[C@H](NC(=O)OCc1ccccc1)C(=O)N[C@@H](CCC(=O)OC(C)(C)C)C(=O)N[C@@H](C)C(=O)N[C@H](C=O)CC(C)C | HEK293 NF-κB luciferase reporter | NF-κB reporter gene, antagonist | – | 24 h, together with: TNFα 5 ng/mL | EC50 | 0.01 µM
C#C[C@]1(COP(=O)(O)OP(=O)(O)OP(=O)(O)O)O[C@@H](n2cnc3c(N)nc(F)nc32)C[C@@H]1O | human PBMC tumour model | – | host not given, plasma | oral, 200 mg, single dose, fasted | Tmax | 6 h
CC1=C(CO)C(=O)O[C@@H]([C@@H](C)[C@H]2CC[C@H]3[C@@H]4C[C@H]5O[C@]56[C@@H](O)C=CC(=O)[C@]6(C)[C@H]4CC[C@]23C)C1 | C2C12 myoblasts | NF-κB reporter gene, inhibitor | – | 24 h pretreatment, together with: TNF-α 10 ng/mL, 24 h | IC50 | 0.562 µM
O=S(=O)(Nc1cccn(O)c1=S)c1cccc2nsnc12 | IDE | substrate degradation, fluorescence polarisation | – | mean of physiological substrates | Ki | 13 µM
Cc1ncsc1-c1ccc(CNC(=O)[C@@H]2C[C@@H](O)CN2C(=O)[C@@H](NC(=O)CCCNC(=O)c2ccc(-c3cnc(NCc4ccco4)n4cnnc34)cc2)C(C)(C)C)cc1 | EED (Homo sapiens, UniProt O75530) | degrader, western blot | HeLa | 24 h | DC50 | 0.79 ± 0.14 µM
CCCCCCOc1ccc(CCCCC(=O)C(=O)NCCCC(=O)OCC)cc1 | PLA2G6 | enzyme activity, inhibitor, mixed micelle | – | – | XI(50) | 0.013 mole fraction
CCC[C@@H]1OC(=O)[C@@H]1CCCCc1ccccc1 (racemic) | PLA2G6 | enzyme activity, inhibitor, lipidomics mixed micelle | – | – | XI(50) | 0.007 mole fraction
O=S(=O)(Nc1ccn(O)c(=S)c1)c1cccs1 | IDE | substrate degradation, inhibitor | – | mean of insulin, Aβ, substrate V | Ki | 17 µM
CC(C)C[C@H](N)C(=O)O | Methyl-accepting chemotaxis protein CtaA sensing domain | binding, thermal shift, zero heat capacity | – | – | Kd | 26 ± 7 µM
Cc1ccc(NC2=CC(=O)c3sc(C)nc3C2=O)cc1 | HeLa expressing Luc-ODC | Luc-ODC degradation, inhibitor, cycloheximide chase luciferase | – | – | IC50 | 7.2 ± 2.3 µM
C[C@]1(CO)CN(c2cc(C(=O)Nc3ccc4c(c3)-c3c(c(C(N)=O)nn3-c3ccc(F)cc3)CC4)c(Cl)cn2)C[C@@]1(C)CO | HEK293 NF-κB luciferase reporter | NF-κB reporter gene, antagonist | – | 24 h, together with: TNFα 5 ng/mL | EC50 | 0.901 µM
COC(=O)c1ccc2c(C(CC(F)(F)F)c3cccs3)c(-c3ccccc3)[nH]c2c1 (single isomer, unassigned; (-)) | CNR1 (Homo sapiens, UniProt P21554) | agonist | – | compound alone | EC50 | 0.416 ± 0.167 µM
Nc1ncnc2c1ncn2[C@@H]1O[C@H](COP(=O)(O)OP(=O)(O)OC[C@H]2O[C@@H](O)C(O)[C@H]2O)C(O)[C@@H]1OP(=O)(O)O (stereo partly drawn) | TRPM2 (Nematostella vectensis, UniProt A7T1N0, Y264A) | channel activation, activator, inside-out patch clamp | – | Y264A mutant, currents not saturated, together with: 125 µM Ca2+ and 2.5 µM PIP2 | EC50 | 85 ± 8 µM
N#Cc1cnc2cnc(NCc3cccnc3)cc2c1Nc1ccc(F)c(Cl)c1 | HeLa expressing ODD-Luc | ODD-Luc degradation, inhibitor, cycloheximide chase luciferase | – | – | IC50 | ~10 µM
COc1ccc(CN[C@H]2C[C@@H](C(=O)NCCc3ccc(NC(C)=O)cc3)N(Cc3ccccc3Cl)C2)cc1 | Neuropeptide FF receptor 2 | calcium signal, antagonist, fluorescence | – | – | Kb | > 10 µM
CCOC(=O)Nc1ccc(SCc2ccccn2)nc1N | Voltage-gated potassium channel, KQT; KCNQ2(Kv7.2)/KCNQ3(Kv7.3) (KCNQ3/KCNQ2, Homo sapiens, UniProt O43525+O43526) | thallium flux, opener, fluorescence thallium flux | HEK293 expressing KV7.2/3 | 30 min | EC50 | > 10 µM
CNC(=O)[C@@H]1C[C@H](NCc2ccc(OC)cc2)CN1Cc1ccccc1Cl | Neuropeptide FF receptor 2 | calcium signal, antagonist, fluorescence | – | – | Kb | > 10 µM
C[C@H](N)C(=O)O | Methyl-accepting chemotaxis protein CtaA sensing domain | binding, thermal shift, zero heat capacity | – | – | Kd | 8.9 ± 0.6 µM
COc1ccc(CN[C@H]2C[C@@H](C(=O)NCCc3ccc(C(C)=O)cc3)N(Cc3ccccc3Cl)C2)cc1 | Neuropeptide FF receptor 2 | calcium signal, antagonist, fluorescence | – | – | Kb | > 10 µM
CC(C)[C@H](NC(=O)[C@@H]1CCCN1C(=O)[C@H](CCCNC(=N)N)NC(=O)[C@H](CS)NC(=O)[C@H](Cc1c[nH]c2ccccc12)NC(=O)[C@H](CCCNC(=N)N)NC(=O)[C@@H](Cc1ccccc1)NC(=O)[C@H](Cc1c[nH]cn1)NC(=O)[C@H](CCC(=O)O)NC(=O)[C@H](CS)NC(=O)[C@H](CS)NC(=O)[C@H](CCCCN)NC(=O)[C@@H]1CC(=O)N[C@@H](CCCNC(=N)N)C(=O)N[C@@H](C)C(=O)N[C@@H](CC(=O)O)C(=O)N[C@H](Cc2ccc(O)cc2)C(=O)N1)C(N)=O [technetium-99m labelled] | – | – | C57 mice, bladder | iv, 0.037 MBq, 2 h | tissue uptake | 65.8 ± 7.08 %ID
N[C@@H](CO)C(=O)O | Methyl-accepting chemotaxis protein CtaA sensing domain | binding, thermal shift, unfolding equilibrium | – | – | Kd | 6 ± 3 µM
C[C@@H]1CN(c2ccc(-c3cc(C(=O)NCCOCCOCCOCCOCCNC(=O)/C=C/c4[nH]cc(C(=O)N[C@@H](CC(N)=O)c5ccc(F)c(Cl)c5)c4-c4ccc(Cl)cc4F)ccc3F)cc2NC(=O)c2c[nH]c(=O)cc2C(F)(F)F)C[C@H](C)N1C | WDR5/DCAF1 (Homo sapiens, UniProt P61964+Q9Y4B6) | degrader, measured: HiBiT-WDR5 | MV4-11 expressing HiBiT-WDR5 | 24 h | DC50 | 0.288 ± 0.137 µM

Some of these lines once more:
Compound | tested on | test | test system | setting | endpoint | value
COC(=O)c1ccc2c(C(CC(F)(F)F)c3cccs3)c(-c3ccccc3)[nH]c2c1 (single isomer, unassigned; (-)) | CNR1 (Homo sapiens, UniProt P21554) | agonist | – | compound alone | EC50 | 0.416 ± 0.167 µM
O=S(=O)(Nc1cccn(O)c1=S)c1cccc2nsnc12 | IDE | substrate degradation, fluorescence polarisation | – | mean of physiological substrates | Ki | 13 µM
